Experimental data of several laboratories.
Each numbered part is a random draw from the data of one study; scales do not carry over between parts.

Set 1
Target: Max-binding protein MNT, bHLH-zipper, MAX partner unstated (MNT, Homo sapiens, UniProt Q99583, residues 220-300)
Method: protein-binding microarray
Molecule type: double-stranded DNA, one strand shown
Medium: in vitro
Tested at: not given
Notes: k-mer, scored over probes, only values ≥0.25
Direction: higher = stronger binding
Construct (chain): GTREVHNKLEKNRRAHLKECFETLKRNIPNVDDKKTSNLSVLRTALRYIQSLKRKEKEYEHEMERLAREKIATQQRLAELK
| Sequence | E-score |
| --- | --- |
| CATGCCCC | 0.342 |
| ACATGTGG | 0.474 |
| CCTCCCAC | 0.266 |
| AGCGTGAG | 0.274 |
| ATGCTCCA | 0.286 |
| CGCGCGGC | 0.262 |
| AGAGCATG | 0.383 |
| ATGTGGTG | 0.325 |
| AGGAGCAC | 0.258 |
| ATGTGCAG | 0.287 |
| ATGCGCGA | 0.269 |
| ACGTTTAC | 0.274 |
| ACATGCTC | 0.401 |
| GACATGCA | 0.258 |
| CCATGCAC | 0.354 |
| AAAACACG | 0.313 |
| ACGTGTCT | 0.435 |
| ACGCCACG | 0.419 |
| ACCTCCAT | 0.276 |
| CGTTGTCC | 0.275 |
| CACGAGGA | 0.463 |

Set 2
Target: RNA binding protein fox-1 homolog 2, RRM domain, GST-SBP tag (RBFOX2, Homo sapiens, UniProt O43251-10, residues 100-194)
Method: RNA Bind-n-Seq
Molecule type: RNA
Medium: in vitro
Tested at: 365 nM
Notes: natural RNA segment, single round, ends assumed
Reference: no-protein control
Direction: higher = stronger binding
Target sequence (chain): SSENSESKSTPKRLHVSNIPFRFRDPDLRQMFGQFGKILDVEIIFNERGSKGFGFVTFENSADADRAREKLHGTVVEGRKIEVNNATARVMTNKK
| Sequence | RBNS enrichment (R) |
| --- | --- |
| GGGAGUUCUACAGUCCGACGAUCGCAAGAUAGAUACUAUAUUAAACUGUACUGUUAUUUAAGAUGUAAUAAAGCAGUUUGACAUGAGGGACUCUGGUGUGAUGGUUAUUUGAGGGUCAUCUUCAGUGUGUGGGUGGAAUUCUCGGGUGCCAA | 0.442 |
| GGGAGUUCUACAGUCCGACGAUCUAACAUUUCCUGGUCAGGAAGGAAAAUCAGUACCUGGACGGGCCUCGAAAAUGACAAAUGCAACAGCGAGCCCUUUGUGUCCAGCUAAGCUAAAGUCUCCUCAGUGUGCAUGGAAUUCUCGGGUGCCAA | 2.57 |
| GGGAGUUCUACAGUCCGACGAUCGUUGCUGCGGCCCUGGGGUUUAACCUCUUCCUGCCAGGAGCGGGACUAAUGCGCCGGGAAGGCUGGGUGCGUACAAGCAAAGGGCUCCCCAUCAGUCCCGUCCGUCUGUCUGGAAUUCUCGGGUGCCAA | 0.37 |
| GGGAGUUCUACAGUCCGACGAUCUGUUCCUGGGGAAGCUGGGGACUUGGGAAGUGAUGGGUGUGUCAUGUUGCGUGUGUCUGUCUGUGAGCCUUUCACACCUGUGCUGGCGCUGGAAAAUUAUUUGUGCUCAGUGGAAUUCUCGGGUGCCAA | 1.79 |
| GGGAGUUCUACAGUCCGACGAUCGAAAAGUUGAAGGGAAAAUACUGGAAUGCUUCUUCAAAGGUUAAAAAAUAACCGAGUCUUUUGGUAAUUUGACCCCACGUGCUCUCUGGCCCUCAAGCAUGUAACCUCGGUGGAAUUCUCGGGUGCCAA | 2.12 |
| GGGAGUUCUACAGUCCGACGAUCUUCUCACUGACCUCUUCCUAGCAGCUUAGAUAGCCUCAGACAUGACUGCCAGGAUUCCUGAUAUGCCCUGGCUUUGGAGAGUCCCUAGGGAUGCCCACUCGGGGGUGUAGUGGAAUUCUCGGGUGCCAA | 0.552 |
| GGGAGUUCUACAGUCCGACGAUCACGAAGAAUUUGGAAUAGGUUUGGUUACAUCUAUUUCUCAUCCCCUUAUUUUCCACCAUUUAAAAAUAAUAAACAUGUUUCUUACCACCGUAUGUUCAUAUGGAUAAGACUGGAAUUCUCGGGUGCCAA | 0.358 |
| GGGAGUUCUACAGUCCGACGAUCUUCUGUGGGAACAGUCCUUCUCUGGCUGGCUAGCUAGGCACAGCUACGGCACUGGAAAGAGUAGAGCCCAGGUGAAGCUUAGGAAAUUGGGAGCUAACACCAAGCAACUGUGGAAUUCUCGGGUGCCAA | 0.417 |
| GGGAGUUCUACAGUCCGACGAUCUUACAUAUUCUUUCACUUGUAUGUACAGAGAGGUUUUCUGAAUAUUUAUUUUAAGGGUUAAAUCACUUUUGCUUGUGUUUAUUACUGCUUGAGGUUGAGCCUUUUUGAGUUGGAAUUCUCGGGUGCCAA | 0.496 |
| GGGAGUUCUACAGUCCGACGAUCGGGCUCUAGGCAGGCCGACAAGGUUACACCUCCCAGAGCUUGUGAUCUUCAUUUUCUGACAGUCAAAGUGUGAAGGAACCCAGACUUCCCCGAGCCACGGUGUUCAGUCAUGGAAUUCUCGGGUGCCAA | 0.4 |
| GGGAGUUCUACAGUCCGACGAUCGGGGAACACAGCCGCUCCCCUCUGCUCUGCACCCCACUCGUGGGGGAACACAGCCGCUCCCCUCUGCUCUGCACCCCACUCGUGGGGGAACACAGCCGCUCCCCUCUGCUUGGAAUUCUCGGGUGCCAA | 0.286 |
| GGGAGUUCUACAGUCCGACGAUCUCCCGUGGCUAGAUCCAGAGCAGAUUCAGCCGGCUCAUUUCCAAGGGCUGGGCCACUGCACAGUUUGUCUGUCCCCGUUGGACUCUUGAGCUCCUCUGGGAAGGCCUUUCUGGAAUUCUCGGGUGCCAA | 0.247 |

Set 3
Target: RING finger protein unkempt homolog, zinc fingers 1-6, GST-SBP tag (UNK, Homo sapiens, UniProt Q9C0B0, residues 30-357)
Chain of UniProt Q9C0B0 (30-357, looked up): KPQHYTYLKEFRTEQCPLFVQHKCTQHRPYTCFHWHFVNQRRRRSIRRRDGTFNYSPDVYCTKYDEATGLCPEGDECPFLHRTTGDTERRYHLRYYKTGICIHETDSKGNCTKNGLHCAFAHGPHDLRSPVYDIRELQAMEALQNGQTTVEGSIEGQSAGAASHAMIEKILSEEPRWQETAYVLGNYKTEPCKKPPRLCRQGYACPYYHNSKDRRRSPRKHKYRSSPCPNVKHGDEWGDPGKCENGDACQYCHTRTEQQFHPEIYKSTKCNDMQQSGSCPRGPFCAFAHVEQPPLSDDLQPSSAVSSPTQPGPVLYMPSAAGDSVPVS
Method: RNA Bind-n-Seq
Molecule type: RNA
Medium: in vitro
Tested at: not given
Notes: RNA with constant flanks, ends assumed
Reference: input RNA pool
Direction: higher = stronger binding
| Sequence | bound/input enrichment [ratio] |
| --- | --- |
| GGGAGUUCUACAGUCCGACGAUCCCUAAGCAUCAGGCAGAAGUCCCAUUGGACCUGAAUGAGAGGGUUCCUUCCUGGCAGCUAUUCCGCUUUCCCAUGGAGGACAGUUAUGGGACCAGCUCAGCUCCUCUUGGCUUGAUAGCUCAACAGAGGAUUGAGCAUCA | 0.147 |
| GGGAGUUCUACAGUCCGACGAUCAAUGCACAUGCACAAUAAUUUCCUGAAAGCCAUAGGACAUGUCUGUAGUCAGCACCACGACCGCACCGUUUCAUGAAAGGCAUGGCGGCUGCAUUUCAUACCACAUCAAAAUACAGUAACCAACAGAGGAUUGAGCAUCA | 0.269 |
| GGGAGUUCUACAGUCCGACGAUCCAGAACCUGCCUUCAGGAUCGUCACGGGUUGGAGCCAUUAAACUUACCUACAUUUCAAAGGUCCGCGAUGCAACUAAGUUAAGGCCAAAGGCAGAGUUUUGUUUUGUUAUGAAUGCAGGACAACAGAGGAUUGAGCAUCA | 0.163 |
| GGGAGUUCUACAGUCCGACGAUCCGAGCUGGAUCCAGAGUUGCAUACAGACCAAUUUCUGCAUCAGUGUUAUCUCGACCAGAGGCCCGCCGGACUGGAGAGGGCUCUACGGUAUUUAAUGGGGCCCAGAAUGGUGUGUCUCAGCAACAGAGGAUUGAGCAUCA | 0.115 |
| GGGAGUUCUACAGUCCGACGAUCGUUGCUGCCUUUAUGGACAUGGGUACCAAUUGCUUUUUGUAAUAUGGUAAAAAUGUGAGCCCGCACUUCUGCAUUGAUUUUUUUUUUUUUGUUUAACAUGUAUUCAGAUUGAGAAUAUGACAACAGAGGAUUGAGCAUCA | 0.434 |
| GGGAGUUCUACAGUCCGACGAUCAGAAAGCAAAACUUGGAAAGAUUUAAGAAAGGAGAUGUAAGAUUCUUGAUUUGCACAGAUGCCGCUGCUAGAGGAAUUGAUAUCCACGGUGUUCCUUAUGUUAUAAAUGUCACUCUGCCCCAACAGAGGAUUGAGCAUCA | 0.34 |
| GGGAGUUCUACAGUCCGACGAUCCUCCUCCGUACUUCUCUCUGAAAGGAAUUUUGUCGUGUUAACCCUAAAGAGAGUGUCCUUAACCGCAGUGAGCGCUUGGAAGCUUCUCCACUGGUACAUUGGGUUUUCUGUUGGGUGAGUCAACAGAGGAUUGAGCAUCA | 0.244 |
| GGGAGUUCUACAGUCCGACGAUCCGGCCCAUGCAGCAGAUGCAACCCACUGCUCCCAGGAACAGUAAUCUCCGUGAACUCCCCACCGCACCUUCACAUGUUUUGGAGAUGAGUGGUAACCGAUGCUCCUCUACACCUGUUGCUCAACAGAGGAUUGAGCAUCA | 0.375 |
| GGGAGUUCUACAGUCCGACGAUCAUUCAGUUGGAAGAUGGUUCUGCGGCCUAUGUUCAACAUGUACCCAUACCUAAAAGUAACCGUUAUGACCAGAGUGCAUUACAGGCGGUUCAGCUGGAAGAUGGUACCACAGCUUAUAUCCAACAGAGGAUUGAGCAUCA | 0.0778 |
| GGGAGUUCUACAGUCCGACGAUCCUAAAGAUAAGCAAUUUAAAGAAAAUUUUAAAAGGAAUCUUGGAUUAUAAUCAUGAGAUUUCCGGACAGCAAAUUAAUGACUUUACCCUUCCUGAUGUGAACCUUAUUGGGGAGCAUUCUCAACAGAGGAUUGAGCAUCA | 0.404 |
| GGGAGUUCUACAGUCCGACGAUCCCCUUUUCUAAAAUUGAGAUAACAUAGUUCUUGAAUAUUUUGCUGUAUUUAUAGCCUCAUAUUCCGGCAUUUAUGCACUGAUGUGUCUUCAAUAAAAAUCUUGUACAGAUAUAUUUUUAUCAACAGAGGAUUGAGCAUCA | 0.66 |

Set 4
Target: Ras GTPase-activating protein-binding protein 1, full length (G3BP1, Homo sapiens, UniProt Q13283)
Chain of UniProt Q13283 (whole entry, looked up): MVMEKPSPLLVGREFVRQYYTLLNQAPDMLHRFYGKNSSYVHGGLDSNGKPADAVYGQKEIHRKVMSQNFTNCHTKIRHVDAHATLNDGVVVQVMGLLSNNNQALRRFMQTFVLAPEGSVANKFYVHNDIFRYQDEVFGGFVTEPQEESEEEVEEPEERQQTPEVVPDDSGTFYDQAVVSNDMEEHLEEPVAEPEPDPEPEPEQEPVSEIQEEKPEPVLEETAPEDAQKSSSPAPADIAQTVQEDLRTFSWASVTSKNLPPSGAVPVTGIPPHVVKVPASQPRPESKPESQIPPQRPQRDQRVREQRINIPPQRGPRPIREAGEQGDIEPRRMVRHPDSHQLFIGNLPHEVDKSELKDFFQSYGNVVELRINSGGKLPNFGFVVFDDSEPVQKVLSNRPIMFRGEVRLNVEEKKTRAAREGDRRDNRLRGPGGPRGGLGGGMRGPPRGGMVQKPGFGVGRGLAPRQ
Method: RNA Bind-n-Seq
Molecule type: RNA
Medium: in vitro
Tested at: 200 nM
Notes: whole 134-nt RNA, ends assumed
With: 150 mM KCl
Reference: input library
Direction: higher = stronger binding
| Sequence | log2 enrichment |
| --- | --- |
| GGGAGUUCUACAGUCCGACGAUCAUUAAUUUGUACACAGACAGGGAAACUGGCAAGCUGAAGGGAGAGGCAACGGUCUCUUUUGAUGACCCACCUUCAGCUAAAGCAGCUAUUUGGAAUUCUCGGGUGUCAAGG | -0.92 |
| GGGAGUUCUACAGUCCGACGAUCGCAGGAAGUAAAAACAAAUGGAAAUGCUUCGGAUAGUGGCAGGGGUGGGGGUUGCUAAGGAAAGGGUGGGAUGCGAGUGGGUAAAGAGUUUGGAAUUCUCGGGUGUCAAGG | 0.782 |
| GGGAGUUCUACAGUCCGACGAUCGUCCUGUGCUACACAUCGUAUGUACCGAAUCGGGUUUGGGUUUUUUUGGGAAAAAGGGAAAGUAUUAUGUUACGCCGUUCGGAUCUGCACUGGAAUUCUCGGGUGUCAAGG | -0.253 |
| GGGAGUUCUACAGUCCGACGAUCGUGCUACACAUCGUAUGUACCGAAUCGGGGAAAAAAAGGGGAAAAAAAGGGGUUUUUUUGGGGAAAGUAUUAUGUUACGCCGUUCGGAUCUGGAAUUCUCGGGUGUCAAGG | -0.141 |
| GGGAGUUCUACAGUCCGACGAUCUGGCCCUGGUGGCAUGCGGGGAGGAAGAGGUGGCCUCAUGGAUCGUGGUGGUCCCGCUGGAAUGUUCAGAGGUGGCCGUGGUGGAGACAGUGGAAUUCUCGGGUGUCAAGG | -0.2 |
| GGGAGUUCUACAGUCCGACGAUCCUCAAGUCCUGUGCUACACAUCGUAUGUACCGAAUCGGAAAAAGGAGGUUUGGAAAGUAUUAUGUUACGCCGUUCGGAUCUGCACUUCCAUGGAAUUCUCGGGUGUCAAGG | -0.704 |
| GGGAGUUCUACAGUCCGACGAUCUGUGCUACACAUCGUAUGUACCGAAUCGGGGAAAAAGGGGUUUUUUUGGGGUUUUUUUGGGGAAAGUAUUAUGUUACGCCGUUCGGAUCUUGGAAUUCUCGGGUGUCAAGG | -0.346 |
| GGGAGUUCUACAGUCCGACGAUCUAACUUUAGAGGAGGAUCUGAUGGAUAUGGCAGUGGACGUGGAUUUGGGUAUGGCUAUAAUGGGUAUGGAGGAGGACCUGGAGGUGGCAAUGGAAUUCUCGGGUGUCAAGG | 0.113 |
| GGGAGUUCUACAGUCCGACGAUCCACAGACAACACGCACCCACACAGACACAGAGGGAAGGGGUUGGGAUGGGGACAGGGUGCACAGCAGGGCGGUGUAGGACCCCAGCCCCUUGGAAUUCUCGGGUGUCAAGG | 1.86 |
| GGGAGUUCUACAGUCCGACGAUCCCAACUCCUAUAAUUCCCUAUCUUUUAGUUUUAGUUGCAGAAACAUUUUGUGGUCAUUAAGCAUUGGGUGGGUAAAUUCAACCACUGUAAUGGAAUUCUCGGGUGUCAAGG | -0.0776 |
